Measurements pooled from the literature.
Parts stem from different laboratories: compare values within a part only. Substitutions count along the parent as printed.

Series 1
Target: ABI1, truncated, D143A, DHFR fusion (Arabidopsis thaliana)
Technique: DHFR PCA, deep sequencing
Matrix: yeast
Setting: methotrexate growth selection, single substitutions
With: (+)-ABA 0.39 µM
Relative to: wild-type fitted maximum
Direction: higher = stronger binding
Endpoint: relative binding score
Starting sequence: PYL1, truncated, DHFR fusion (Arabidopsis thaliana); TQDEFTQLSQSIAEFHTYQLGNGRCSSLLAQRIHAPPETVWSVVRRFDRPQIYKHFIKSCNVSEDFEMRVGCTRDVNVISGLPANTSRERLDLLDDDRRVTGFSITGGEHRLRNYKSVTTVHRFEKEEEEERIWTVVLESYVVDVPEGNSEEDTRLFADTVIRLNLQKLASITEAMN; partner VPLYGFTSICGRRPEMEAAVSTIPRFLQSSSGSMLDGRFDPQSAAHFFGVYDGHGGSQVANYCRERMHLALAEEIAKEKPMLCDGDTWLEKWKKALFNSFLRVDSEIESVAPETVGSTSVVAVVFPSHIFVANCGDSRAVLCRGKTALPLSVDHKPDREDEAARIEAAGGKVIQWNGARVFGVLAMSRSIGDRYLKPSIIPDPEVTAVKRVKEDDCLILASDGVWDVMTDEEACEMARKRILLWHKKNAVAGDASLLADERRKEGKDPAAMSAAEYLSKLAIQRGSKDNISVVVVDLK
N22Q: 57%
N77W: 21.9%
E67A: 25.7%
H110V: 1.55%
W41C: 3.76%
N77Q: 74.3%
D144G: 1.94%
L93S: -3.83%
R90I: 2.54%
L94Y: 6.18%
G102C: -8.36%
G23T: 10.1%
F15C: -6.46%
G108L: -9.75%
R111A: 0.384%
I57S: -2.16%
Q167L: 33.2%
R49E: 30.8%
V143K: -10.6%
E131S: 56.8%

Series 2
Target: XBP1, bZIP domain (human)
Technique: DHFR protein complementation
Matrix: yeast
Setting: single substitutions, most at no-binding floor
Relative to: wild-type JUN-FOS pair
Direction: higher = stronger binding
Endpoint: binding fitness
Starting sequence: JUN, bZIP domain (human); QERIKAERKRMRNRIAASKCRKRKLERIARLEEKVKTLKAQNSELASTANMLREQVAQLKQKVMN; partner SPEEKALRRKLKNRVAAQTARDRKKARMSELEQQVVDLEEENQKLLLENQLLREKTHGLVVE
A29M: -1.29 natural log
L52W: -1.48 natural log
T37A: -0.522 natural log
A46Y: -1.3 natural log
I28H: -1.38 natural log
A57L: -1.11 natural log
A49E: -1.42 natural log
A57T: -1.1 natural log
A57Y: -0.955 natural log
L31D: -1.44 natural log
A29K: -0.811 natural log
K36N: -0.943 natural log
K34Y: -1.05 natural log
Q41S: -1.53 natural log

Series 3
Target: Histone acetyltransferase KAT6A, both winged helices, GST fusion (KAT6A, Homo sapiens, UniProt Q92794, residues 1-181)
Technique: protein binding microarray
Molecule type: double-stranded DNA, one strand shown
Matrix: in vitro
Concentration: not given
Setting: 8-mer, flanks averaged, mean of 2 arrays, mostly near background
Relative to: not given
Direction: higher = stronger binding
Endpoint: E-score
Construct (chain): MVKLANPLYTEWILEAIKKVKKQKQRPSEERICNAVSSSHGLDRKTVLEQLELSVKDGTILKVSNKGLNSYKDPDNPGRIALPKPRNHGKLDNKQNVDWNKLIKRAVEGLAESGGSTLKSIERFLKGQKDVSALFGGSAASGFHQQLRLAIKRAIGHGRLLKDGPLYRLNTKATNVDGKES
AGTCGGAC: 0.0399
ACTTTCCC: -0.177
AATCCCCA: -0.232
CGGGGCAA: -0.0298
GTGGAATA: -0.0889
CCTGGCTC: 0.0169
ACGGGTCC: 0.214
ACATCCGA: 0.125
ACTAAGCA: -0.103
CTTGGCAC: -0.151
CCTTGCAA: -0.13
GGTAACAC: 0.032
AAGTAGAG: -0.14
GGCACAGA: 0.0917
ATGACGAA: -0.167
AGTCGATC: -0.088
GTGTGTCA: 0.0632
AGCACTCC: -0.0637
ATTTGGAC: -0.058
ATACCGCG: 0.346
GGGTTGTA: 0.0235

Series 4
Target: CCND2, cyclin fold, Cln2 fusion (human)
Technique: yeast growth competition, sequencing
Matrix: yeast
Setting: weak parent motif
Relative to: not given
Direction: higher = stronger binding
Endpoint: normalised enrichment score
Starting sequence: CDC25A docking peptide (human); PPHRRRLLFACSP
R4L: 0.345
R6G: -0.24
H3N: 0.104
L7N: -0.0305
P1W: -0.149
R5H: 0.48
F9V: 0.284
R5E: -0.0962
P13K: 0.00304
L8I: 0.323
P2C: 0.256
H3S: 0.197
P13Q: 0.069

Series 5
Target: UBE2L6 UBC core domain (UniProt O14933)
Technique: yeast two-hybrid
Matrix: yeast
Setting: mostly zero background
Relative to: not given
Direction: higher = stronger interaction
Endpoint: lacZ reporter activity
B1: TRIM72 RING domain (UniProt Q6ZMU5); chain APGLLHQELSCPLCLQLFDAPVTAECGHSFCRACLGRVAGEPAADGTVLCPCCQAPTRPQALST
B2: ARK2C RING domain (UniProt Q6ZSG1); chain EGEESDTDEKCTICLSMLEDGEDVRRLPCMHLFHQLCVDQWLAMSKKCPICRVDIETQLGAD
B3: IRF2BPL RING domain (UniProt Q9H1B7); chain SPMANSGPLCCTICHERLEDTHFVQCPSVPSHKFCFPCSRESIKAQGATGEVYCPSGEKCPLVGSNVP
Residues (chain): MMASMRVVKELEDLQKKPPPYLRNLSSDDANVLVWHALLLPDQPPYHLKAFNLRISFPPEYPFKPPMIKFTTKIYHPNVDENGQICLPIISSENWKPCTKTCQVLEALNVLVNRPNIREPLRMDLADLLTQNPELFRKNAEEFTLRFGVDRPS
B1 (TRIM72 RING domain): 0
QLRRLQEERTCKVCMDKEVSIVFIPCGHLVVCKDCAPSLRKCPICRSTIKGTVRTF (BIRC3 RING domain (UniProt Q13489)): 0
B2 (ARK2C RING domain): 0
DDENSDNSNECVVCLSDLRDTLILPCRHLCLCTSCADTLRYQANNCPICRLPFRALLQIR (MGRN1 RING domain (UniProt O60291)): 0
VTLSLTLPITCHICLGKVRQPVICINNHVFCSICIDLWLKNNSQCPACRVPITPENPCK (OBI1 RING domain (UniProt Q5W0B1)): 0
QLQDIKEQTMCPVCLDRLKNMIFLCGHGTCQLCGDRMSECPICRKAIERRILLY (MIB1 RING domain (UniProt Q86YT6)): 0
B3 (IRF2BPL RING domain): 0
QLRRLQEERTCKVCMDKEVSVVFIPCGHLVVCQECAPSLRKCPICRGIIKGTVRTF (BIRC2 RING domain (UniProt Q13490)): 0
FPEHFVKSISCQICEHILADPVETNCKHVFCRVCILRCLKVMGSYCPSCRYPCFPTDLES (RAG1 RING domain (UniProt P15918)): 0
PEELQAMDNVCIICREEMVTGAKRLPCNHIFHTSCLRSWFQRQQTCPTCRMDVLRASLPA (SYVN1 RING domain (UniProt Q86TM6)): 0
QHHELTSLFECPVCFDYVLPPILQCQAGHLVCNQCRQKLSCCPTCRGALTPSIRNL (SIAH2 RING domain (UniProt O43255)): 0

Series 6
Target: RNA binding protein fox-1 homolog 2, RRM domain, GST-SBP tag (RBFOX2, Homo sapiens, UniProt O43251-10, residues 100-194)
Technique: RNA Bind-n-Seq
Molecule type: RNA
Matrix: in vitro
Concentration: 365 nM
Setting: natural RNA segment, single round, ends assumed
Relative to: no-protein control
Direction: higher = stronger binding
Endpoint: RBNS enrichment (R)
All sequences stand within: GGGAGUUCUACAGUCCGACGAUC … UGGAAUUCUCGGGUGCCAA
Residues (chain): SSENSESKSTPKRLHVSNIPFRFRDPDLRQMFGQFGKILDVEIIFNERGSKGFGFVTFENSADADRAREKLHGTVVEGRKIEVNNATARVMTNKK
AAAGUCUAAAUUGGAGAUCCAGUUUUAGAAGUGCUUUCUGGGAAGCAUUUAAUGGGAUUAGCUGUAGUCACUGCUUAUGGGAAGAACCUCAGAUCAGCCCCUUAAAAUGA: 0.567
CUUAUUACCAAACUCUCAACUCAUACGCAGCUUCAAUUUCCGAAAUGGCUUCAAAUAGGGAGGGUAAGAACAUGGAGGAGGGGGGUGCCAGGAAAUGAUACCCAGAACUA: 0.297
CUGAUGGUGUCCUCCUCUGGGCAGCUGUAUAGGAUCAUCAUGUGGUUACAAAAAAUACUUCCCUCAAAAAAAUUCUUUUAAUGUGGAAACAAUAAAUUUCACAGAAAAAA: 0.393
AGUACUAGAAGCCAGAGCACUCUUCCUCCUGGCUCCUCCCCAGUGCUCUAGUGCUGUAGGAACCAAGAGCCAGCCCCAGGUUCCCCGAGGCAGUAAAAAUCCAGCACAGG: 0.441
AAGAGUGAAGGAUUAUGGGAAAACGUCCAUUCCUUUUCCGUGUUUUUGAAGCCCACAGUUUUAGUUGGUACUGACGGAGGGGAGAUUGAGCGAUGCUCUUUCCUUCUCUG: 0.335
UGUGUGGUGGCCCUGGCACUGCAGAGACUGGUCCGGGCUGUCAGGAGGCGGGAGGGGGCAGCGCUGGGCCUCGUGUCGCUUGUCGUCGUCCGUCCUGUGGGCGCUCUGCC: 0.482
ACCUUUUUGUUAAAUAAAAUUUGUACUCAAAUGAUGAUGUCACUGUUUUUAAUGUGCAGGUAUUGAAUUAUAUGGUCUGACUUAAAUCAUAACUAGACUUGAGUGGGCUG: 0.453
UCACGUCUUACUCUGAGGUGUGUGACAUCUUUAGUGUGUGAGAUUUGGAUUCCUAACCUUAAGUGAGCUGUAAACAAUGUGAAUGGAGCUCUGGCCAGUCACCUUUAACC: 0.455
AAAUUAUUUUAAAAGAAAUACAACAUCUUAUUCUUUAGCUUUCUUAAUCGGUGCUUUAUGGAGGCCAGUGUAACGUUACAUGACUCGUUGAGAAAGUUGAGGAAUUUCCU: 0.531
UUCUGGUGCUUUUGCUUACUAAGAGACCGAUAUUCUUAAGUUGUUUUCUUGUUUUAACAGCCUUGAGAAAUGUUUGGUUUUGGCCAGCAGAAUUCUUGUCUACUUUUUUC: 0.332
UCCAGGUUACAAAGUUCUCCUCAUAGGUGGAAAGGUUUACUGCAGUGUUAUCCUCUAAGUGUGAUAAACUGUGCUUUACCGCUCCGAACACUCAGGACUCCGUGUGUAUC: 0.321
GCAUACAAGCAUUUGCAACAAGUAUUCAAAUAGAGGCUCACAGCGGCAUAAGCUGGACUUUGUCGCCACUAGAUGACAAGAUGGUAUACCUAAGCUAACCACACGUGUGU: 0.6

Some of these lines once more (series 1):
R49E: 30.8%
L94Y: 6.18%
R111A: 0.384%
G23T: 10.1%
N77W: 21.9%
V143K: -10.6%
Q167L: 33.2%
N77Q: 74.3%
E131S: 56.8%
W41C: 3.76%
F15C: -6.46%
